Published values gathered from unrelated publications.
Numbered parts are unrelated; each lists some results of a single study.

Study 1 — technique: aptamer microarray, sandwich; molecule type: DNA with 2'F-ANA; matrix: in vitro; tested at: 200 nM; with: Cy3 exosite-II aptamer, 400 nM; direction: higher = stronger binding; strand: GGTTGGTGTGGTTGG
Target: Prothrombin, mature alpha-thrombin (F2, Homo sapiens, UniProt P00734)
Setting: whole 15-mer aptamer, many near background
`2'F-ANA at 3 5 6 7 9 10 13 15` — result for “mean fluorescence intensity”: 49.6 a.u.
For `2'F-ANA at 1 2 4 5 6 8 9 14`, “mean fluorescence intensity” read 54.1 a.u.
Under “mean fluorescence intensity”, `2'F-ANA at 1 3 5 7 8 9 11` is recorded as 61.8 a.u.
`2'F-ANA at 2 6 9 10 12 15` — result for “mean fluorescence intensity”: 146 a.u.
`2'F-ANA at 1 2 4 5 7 8 11 14` — result for “mean fluorescence intensity”: 48.1 a.u.
`2'F-ANA at 1 4 5 7 8 13 14`: “mean fluorescence intensity” 55.9 a.u.
`2'F-ANA at 1 3 6 8 10 12 14` — result for “mean fluorescence intensity”: 62.8 a.u.
Under “mean fluorescence intensity”, `2'F-ANA at 1 4 6 8 9 11 13 14 15` is recorded as 66.4 a.u.
`2'F-ANA at 1 2 3 4 5 6 8 10 11 13 14 15`: “mean fluorescence intensity” 51.5 a.u.
For `2'F-ANA at 2 3 4 5 9 10 12`, “mean fluorescence intensity” read 62.3 a.u.
Under “mean fluorescence intensity”, `2'F-ANA at 1 5 6 7 9 10 12` is recorded as 82 a.u.
For `2'F-ANA at 1 3 4 7 8 9 10 12`, “mean fluorescence intensity” read 107 a.u.
`2'F-ANA at 4 5 7 9 11` — result for “mean fluorescence intensity”: 62.4 a.u.

Study 2 — technique: RNA Bind-n-Seq; molecule type: RNA; matrix: in vitro; tested at: 200 nM; setting: whole 134-nt RNA, ends assumed; with: 150 mM LiCl; relative to: input library; direction: higher = stronger binding; library: 7-deaza-guanosine replaces G
Target: Fragile X messenger ribonucleoprotein 1, C-terminal low-complexity region (Fmr1, Mus musculus, UniProt P35922)
`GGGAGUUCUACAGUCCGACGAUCGUCCUGUGCUACACAUCGUAUGUACCGAAUCGGGGUGGGGAAAGGGGUUUUUUUGGGGAAAGUAUUAUGUUACGCCGUUCGGAUCUGCACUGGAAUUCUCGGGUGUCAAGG` has a log2 enrichment of 0.745.
`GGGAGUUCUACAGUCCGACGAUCUGGGAGGUGGAUUUUGUUUAUUUUUUUAGCUCCUUUCCAGGGGUGGGAAUUUUUUUUUAAUAUGUGUCAUGAAUAAAGUUGUUUUUGAAAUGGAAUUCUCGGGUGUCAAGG` has a log2 enrichment of 0.346.
`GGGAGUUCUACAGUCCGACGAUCUCAAGUCCUGUGCUACACAUCGUAUGUACCGAAUCGGCCGGGCCGGGGCCGGGGAAAGUAUUAUGUUACGCCGUUCGGAUCUGCACUUCCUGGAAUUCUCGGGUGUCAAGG` has a log2 enrichment of -0.215.
`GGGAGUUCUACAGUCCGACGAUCCUCAAGUCCUGUGCUACACAUCGUAUGUACCGAAUCGGGGCCGGCCGGGCCGGGAAAGUAUUAUGUUACGCCGUUCGGAUCUGCACUUCCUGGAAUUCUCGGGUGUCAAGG` has a log2 enrichment of 0.609.
For `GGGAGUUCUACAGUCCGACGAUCUAACUUUAGAGGAGGAUCUGAUGGAUAUGGCAGUGGACAUGGAUUUGGGGAUGGCUAUAAUGGGUAUGGAGGAGGACCUGGAGGUGGCAAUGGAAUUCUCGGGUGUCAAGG`, the log2 enrichment was 0.356.
For `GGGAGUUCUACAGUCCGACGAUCCAAGUCCUGUGCUACACAUCGUAUGUACCGAAUCGGGUUUGGGGUUUGGUUUGGGGAAAGUAUUAUGUUACGCCGUUCGGAUCUGCACUUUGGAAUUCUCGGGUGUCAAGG`, the log2 enrichment was -1.62.
With `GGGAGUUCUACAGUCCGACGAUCCUGUGCUACACAUCGUAUGUACCGAAUCGGGGUUUUUUUGGUUUUUUUGGGGUUUUUUUGGAAAGUAUUAUGUUACGCCGUUCGGAUCUGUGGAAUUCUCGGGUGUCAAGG` the log2 enrichment was 0.571.
With `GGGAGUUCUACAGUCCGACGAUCACCAUGCAGGUGGGCAUCUUUGGGAAGUGGGGCAAGGGGGGGAUAGGGAAGGGGGUAACACUUUGGGAACAGGUGGUCCCAGGUCGUUUCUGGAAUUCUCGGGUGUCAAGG` the log2 enrichment was 1.08.

Study 3 — technique: protein binding microarray; molecule type: double-stranded DNA, one strand shown; matrix: in vitro; tested at: not given; relative to: not given; direction: higher = stronger binding
Target: Histone acetyltransferase KAT6A, winged helix 1, GST fusion (KAT6A, Homo sapiens, UniProt Q92794, residues 1-85)
Setting: 8-mer, flanks averaged, mean of 2 arrays, mostly near background
Residues (chain): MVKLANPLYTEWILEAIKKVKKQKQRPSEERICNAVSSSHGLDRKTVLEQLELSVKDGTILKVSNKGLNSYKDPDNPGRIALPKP
`CCCGTTGC` has an E-score of 0.277.
The E-score of `ACGGGAAG` is reported as 0.27.
With `GCGCAATA` the E-score was 0.272.
The E-score of `ACCCTTAT` is reported as -0.0291.
The E-score of `AGCCATCG` is reported as -0.126.
`CGGACCCC` has an E-score of 0.214.
For `AAGTTTCT`, the E-score was -0.221.
With `AGCTGGTA` the E-score was -0.194.
With `ATGCGAGA` the E-score was -0.0865.

Mixed results
For `PhoQ, residues 284 288 289 292 302 303 SACGEM`, the fold induction was 14.7 (PhoP, residues 12 14 15 18 19 GHCSL (Escherichia coli, UniProt P23836); Sort-seq, item: YFP reporter; E. coli; PhoQ-PhoP variant library, with: 10 µM Mg2+; relative to: high Mg2+ state, higher = stronger signaling).

Excerpt of the above (study 1):
`2'F-ANA at 1 2 4 5 7 8 11 14` — result for “mean fluorescence intensity”: 48.1 a.u.
`2'F-ANA at 4 5 7 9 11` — result for “mean fluorescence intensity”: 62.4 a.u.
Under “mean fluorescence intensity”, `2'F-ANA at 1 5 6 7 9 10 12` is recorded as 82 a.u.
Under “mean fluorescence intensity”, `2'F-ANA at 1 3 5 7 8 9 11` is recorded as 61.8 a.u.
`2'F-ANA at 1 4 5 7 8 13 14`: “mean fluorescence intensity” 55.9 a.u.
